Values quoted from earlier work, collected from citations in different studies.

| SMILES | target or system | assay | system | setting | scale | quantity | value |
| --- | --- | --- | --- | --- | --- | --- | --- |
| COC(=O)Nc1nc2ccc(C(=O)c3ccccc3)cc2[nH]1 | Toxoplasma gondii | parasite growth | – | concentration not given | – | antiparasitic activity | active |
| CO[C@@H](C)c1c(Nc2ccc([C@H](N(C)C(=O)C3CCS(=O)(=O)CC3)C(F)(F)F)cc2)cnc2cc(Cl)nn12 | MALT1 (human) | enzyme activity | – | low salt | – | IC50 | 18 nM |
| N#CCNC(=O)c1ccc(-c2ccnc(Nc3ccc(N4CCOCC4)cc3)n2)cc1 | MDA-MB-231 | cell growth | – | 72 h | – | IC50 | 4200 nM |
| CNC(=O)c1ccc(Nc2ncc(C(F)(F)F)c(NCc3nccnc3N(C)S(C)(=O)=O)n2)cc1 | ADORA2A | Cerep selectivity panel | – | – | – | Ki | 370 nM |
| CC1(C)CCC(CN2CCN(c3ccc(C(=O)NS(=O)(=O)c4ccc(NCC5CCOCC5)c([N+](=O)[O-])c4)c(Oc4cnc5[nH]ccc5c4)c3)CC2)=C(c2ccc(Cl)cc2)C1 | – | – | human | dose not given, together with: triazole antifungals (CYP3A inhibitors) | baseline: without triazole | AUC(0-24) increase | 8.8 fold |
| N#CN1CC[C@@H](C(=O)Nc2nc3c(s2)CN(C(=O)CN=[N+]=[N-])CC3)C1 | UCHL1 human | biochemical potency | – | – | – | IC50 | 12900 nM |
| C[C@@H]1C[C@H]2[C@@H]3CCC4=CC(=O)C=C[C@]4(C)[C@@]3(F)[C@@H](O)C[C@]2(C)[C@@]1(O)C(=O)CO | Toxoplasma gondii | parasite growth | – | concentration not given, published screen | – | activity class | inactive |
| O[C@]1(C(F)(F)F)CCCC[C@H]1Nc1ccc(F)cc1 | SLC6A3 | binding, radioligand binding Eurofins-Panlabs | – | – | – | Ki | 900 nM |
| COc1cc(C2Oc3cc([C@H]4Oc5cc(O)cc(O)c5C(=O)[C@@H]4O)ccc3OC2CO)ccc1O (stereo partly drawn) | MDA-MB-231 | cell proliferation | – | – | – | IC50 | 192000 nM |

Repeated from above:
| SMILES | target or system | assay | system | setting | scale | quantity | value |
| --- | --- | --- | --- | --- | --- | --- | --- |
| CNC(=O)c1ccc(Nc2ncc(C(F)(F)F)c(NCc3nccnc3N(C)S(C)(=O)=O)n2)cc1 | ADORA2A | Cerep selectivity panel | – | – | – | Ki | 370 nM |
